Measured values collected from several papers.
Each numbered part is a random draw from the data of one study; scales do not carry over between parts. Changes are numbered by the printed parent chain.

Sample 1
Target: RNA binding protein fox-1 homolog 2, RRM domain, GST-SBP tag (RBFOX2, Homo sapiens, UniProt O43251-10, residues 100-194)
Technique: RNA Bind-n-Seq
Molecule type: RNA
Matrix: in vitro
Tested at: 365 nM
Notes: natural RNA segment, single round, ends assumed
Relative to: no-protein control
Direction: higher = stronger binding
Constant ends, left off below: GGGAGUUCUACAGUCCGACGAUC … UGGAAUUCUCGGGUGCCAA
Construct (chain): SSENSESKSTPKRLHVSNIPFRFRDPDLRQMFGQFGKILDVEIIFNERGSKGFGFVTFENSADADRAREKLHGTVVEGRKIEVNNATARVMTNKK
Sequence | RBNS enrichment (R)
CUUCUAAGAGACAGCUUCCAACAGGAACUCUAGCCAAGAACCACGGCCUACACUCUCCAACACAAUCCAGAGGCCACAACUAGGUCCCACAGCUAAUUUACCCCUGGAGA | 0.395
UAGCUCUGUGCUCUCACCAGACAAUGAAUGAACUAUGAAAGAUUUAGUCAACAGAAACUAUUUUAGGGUAUGUUUAGUUGGUAAAUGCUUCAUGUUCAUGGAUGACACAA | 0.377
GAGGUUUGGGAGUGGGAUAAGGAGAGGAGACCGACUUCGGAGGUCCCUGAAAUAAAGUGAUACAAUUAGACCUCACAUGCUUUUGCUGUCUCCGGAGCGCCGCCCCUCCC | 0.484
AGUCAUCUUUGUCUCCUUCCCUGGGAUGCAGAUACCGAAGUUGCUUUUCCAACUUUCGCCUCCGCUAGGAGAUCAGAAAGAAUUCUUGUGACUUCCUGGGCAGCCAUUGA | 0.285
UCUGAAUCCGAGUGCUCCAGUGCAGUGUAAUGAGCUCCAACUUGGUGUGUACUGCCUGCUGGACUGAAGAGACAUGCCUGUCUUUAUGUGAGAGGCUGGCUUUUGUUUAC | 0.335
GAGGGGGCCUUCCUCCAGGGAAUGUGACUCUCCCAGGCCCCAGAAUAGCUCCUGGACCCAAGCCCAAGGCCCAGCCUGGGACAAGGCUCCGAGGGUCGGCUGGCCGGAGC | 0.385
ACUGUGUCCCGAAGGGGCAGUCAAAGUGCAAUAUUAUUGAAACUUCCCUCCCUACACACCCAGUGCGCUGUGGUUACAGACCGUGGGCUCCCUGAGUUCUGCCGGUGAGC | 0.401
ACAAAUUUAUAGAUGCAAACCAAAAGAUCUUUUUAAAAGAGAGAGAGAGGAAAAAAAUCACCUUUUAUUUGUUUGGGUCUCAUUGUCAGAAUUAUUAUUCAGAUCAAGAA | 0.652

Sample 2
Target: CCNB1, cyclin fold, Cln2 fusion (human)
Technique: yeast growth competition, sequencing
Matrix: yeast
Notes: strong parent motif
Relative to: not given
Direction: higher = stronger binding
Starting sequence: MICAL3 docking peptide (human); LQLRRQLSFSEDS; partner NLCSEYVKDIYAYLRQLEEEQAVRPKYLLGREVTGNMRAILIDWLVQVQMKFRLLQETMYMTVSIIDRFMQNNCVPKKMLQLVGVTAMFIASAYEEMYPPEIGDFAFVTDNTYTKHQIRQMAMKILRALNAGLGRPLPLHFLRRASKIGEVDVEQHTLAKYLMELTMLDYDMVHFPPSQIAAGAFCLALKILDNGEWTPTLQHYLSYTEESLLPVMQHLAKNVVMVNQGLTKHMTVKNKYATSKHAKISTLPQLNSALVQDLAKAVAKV
Variant | normalised enrichment score
LQLRRQLNFSEDS [S8N] | 2.27
LQLRRQLLFSEDS [S8L] | 1.85
LQLNRQLSFSEDS [R4N] | 3.55
LQLRRQLSDSEDS [F9D] | -0.112
LQLRRELSFSEDS [Q6E] | 3.39
LQLRRQLMFSEDS [S8M] | 1.72
LQLRRQLSSSEDS [F9S] | 0.0464
LQLRRQLSHSEDS [F9H] | -0.0558
LQLRRQLSFWEDS [S10W] | 0.676
LQLRRKLSFSEDS [Q6K] | 5.6
LHLRRQLSFSEDS [Q2H] | 4.58
LQLRRDLSFSEDS [Q6D] | 0.0628
LALRRQLSFSEDS [Q2A] | 4.71

Sample 3
Target: Ras GTPase-activating protein-binding protein 1, full length (G3BP1, Homo sapiens, UniProt Q13283)
Chain of UniProt Q13283 (whole entry, looked up): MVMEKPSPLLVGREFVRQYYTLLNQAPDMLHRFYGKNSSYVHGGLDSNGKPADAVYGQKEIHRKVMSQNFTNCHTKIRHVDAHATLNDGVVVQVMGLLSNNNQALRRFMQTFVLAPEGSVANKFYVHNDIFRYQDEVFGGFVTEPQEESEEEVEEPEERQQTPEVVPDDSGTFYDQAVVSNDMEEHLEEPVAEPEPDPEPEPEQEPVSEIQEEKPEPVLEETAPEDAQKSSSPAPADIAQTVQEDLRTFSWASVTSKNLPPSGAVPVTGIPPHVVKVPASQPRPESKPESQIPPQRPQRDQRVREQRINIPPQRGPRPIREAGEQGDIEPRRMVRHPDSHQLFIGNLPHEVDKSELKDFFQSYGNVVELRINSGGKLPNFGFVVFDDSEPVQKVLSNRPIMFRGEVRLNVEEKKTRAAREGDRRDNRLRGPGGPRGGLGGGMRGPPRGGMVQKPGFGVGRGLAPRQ
Technique: RNA Bind-n-Seq
Molecule type: RNA
Matrix: in vitro
Tested at: 200 nM
Notes: whole 134-nt RNA, ends assumed
Added: 150 mM KCl
Relative to: input library
Direction: higher = stronger binding
Constant ends, left off below: GGGAGUUCUACAGUCCGACGAUC … UGGAAUUCUCGGGUGUCAAGG
Sequence | log2 enrichment
CAAGUCCUGUGCUACACAUCGUAUGUACCGAAUCGGGAAAGGGGAAAGGAAAGGGGAAAGUAUUAUGUUACGCCGUUCGGAUCUGCACUU | 0.303
GUCCUGUGCUACACAUCGUAUGUACCGAAUCGGGGAGGGGAAAAAGGGGAAAAAGGGGAAAGUAUUAUGUUACGCCGUUCGGAUCUGCAC | 0.324
UCAAGUCCUGUGCUACACAUCGUAUGUACCGAAUCGGUGGUUUUUGGAAAAAGGAAAGUAUUAUGUUACGCCGUUCGGAUCUGCACUUCC | -0.717
AAGUCCUGUGCUACACAUCGUAUGUACCGAAUCGGUUUUUGGAAAGGUUUUUUUGGAAAGUAUUAUGUUACGCCGUUCGGAUCUGCACUU | -1.56
UCCUGUGCUACACAUCGUAUGUACCGAAUCGGGGAAAAAAGGAAAAAAGGAAAAAAGGGGAAAGUAUUAUGUUACGCCGUUCGGAUCUGC | -0.417
CUCAAGUCCUGUGCUACACAUCGUAUGUACCGAAUCGGGGUUGGUUGGGGUUGGAAAGUAUUAUGUUACGCCGUUCGGAUCUGCACUUCC | 0.154
CCUCAAGUCCUGUGCUACACAUCGUAUGUACCGAAUCGGAGGAGGUUUUUGGAAAGUAUUAUGUUACGCCGUUCGGAUCUGCACUUCCAG | -0.0919
CACAGACAACACGCAACCACACAGACACAGAGGGAAGGGGUUGGGAUGGGGACAGGGUGCACAGCAGGGCGGGGUAGGACCCCAGCCCCU | 1.54
GUCCUGUGCUACACAUCGUAUGUACCGAAUCGGGGUUUGGGGUGGGGUUUUUUUGGGGAAAGUAUUAUGUUACGCCGUUCGGAUCUGCAC | 0.443

Sample 4
Target: Sal-like protein 4, full length isoform B (SALL4, Homo sapiens, UniProt Q9UJQ4-2, residues 1-616)
Technique: universal PBM
Molecule type: double-stranded DNA, one strand shown
Matrix: in vitro
Tested at: not given
Notes: 8-mer, flanks averaged, mean of replicates
Direction: higher = stronger binding
Residues (chain): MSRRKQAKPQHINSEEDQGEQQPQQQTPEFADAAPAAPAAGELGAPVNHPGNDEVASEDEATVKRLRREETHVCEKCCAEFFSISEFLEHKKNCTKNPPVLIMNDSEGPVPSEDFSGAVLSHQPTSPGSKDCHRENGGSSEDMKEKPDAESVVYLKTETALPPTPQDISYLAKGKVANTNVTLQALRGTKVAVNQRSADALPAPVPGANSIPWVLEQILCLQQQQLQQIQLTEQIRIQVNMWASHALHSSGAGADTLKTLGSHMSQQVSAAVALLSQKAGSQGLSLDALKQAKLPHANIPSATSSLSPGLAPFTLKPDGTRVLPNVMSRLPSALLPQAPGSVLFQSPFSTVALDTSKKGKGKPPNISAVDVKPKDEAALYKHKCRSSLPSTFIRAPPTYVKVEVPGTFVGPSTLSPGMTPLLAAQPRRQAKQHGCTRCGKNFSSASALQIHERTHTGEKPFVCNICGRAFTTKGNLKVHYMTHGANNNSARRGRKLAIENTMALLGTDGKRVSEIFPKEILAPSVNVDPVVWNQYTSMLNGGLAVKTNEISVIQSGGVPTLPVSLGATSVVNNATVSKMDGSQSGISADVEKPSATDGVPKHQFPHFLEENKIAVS
Sequence | E-score
AACCATTC | 0.176
CTAGGCAC | -0.158
CCGGCAGA | -0.326
CGGGTGTA | -0.167
AATTCTCT | -0.0128
CTGGCTTA | -0.167
ATGTTACA | 0.237
ACTCGTAC | -0.0487
AAACCATA | 0.325
CTATGTGA | 0.0725
ATGTAAGG | 0.239
GCCACTTA | 0.0402
CTCCAAGC | -0.165
CGGGTTCC | -0.278
GCTTCCTA | 0.187
AGGATATG | 0.135
ATGAGTTG | 0.0405
GCGAGTAA | 0.0213
GCTCTCAC | -0.25
GCCTATCC | -0.158
AAAGAATT | 0.204
GGGCAGCA | -0.352
ACACTGCG | -0.191
GCTCGAAC | -0.125
AACCAGAC | -0.0519

Some of these lines once more (sample 1):
Sequence | RBNS enrichment (R)
GAGGUUUGGGAGUGGGAUAAGGAGAGGAGACCGACUUCGGAGGUCCCUGAAAUAAAGUGAUACAAUUAGACCUCACAUGCUUUUGCUGUCUCCGGAGCGCCGCCCCUCCC | 0.484
AGUCAUCUUUGUCUCCUUCCCUGGGAUGCAGAUACCGAAGUUGCUUUUCCAACUUUCGCCUCCGCUAGGAGAUCAGAAAGAAUUCUUGUGACUUCCUGGGCAGCCAUUGA | 0.285
UCUGAAUCCGAGUGCUCCAGUGCAGUGUAAUGAGCUCCAACUUGGUGUGUACUGCCUGCUGGACUGAAGAGACAUGCCUGUCUUUAUGUGAGAGGCUGGCUUUUGUUUAC | 0.335
GAGGGGGCCUUCCUCCAGGGAAUGUGACUCUCCCAGGCCCCAGAAUAGCUCCUGGACCCAAGCCCAAGGCCCAGCCUGGGACAAGGCUCCGAGGGUCGGCUGGCCGGAGC | 0.385
